# Experimental data collected from several papers.
# Every numbered part comes from another study and shows a few of its results, in no order. Positions count from the first letter of the parent shown.

# Study 1
# Target: Histone acetyltransferase KAT6A, winged helix 1, GST fusion (KAT6A, Homo sapiens, UniProt Q92794, residues 1-85)
# Method: protein binding microarray
# Molecule type: double-stranded DNA, one strand shown
# Sample: in vitro
# Concentration: not given
# Setting: 8-mer, flanks averaged, mean of 2 arrays, mostly near background
# Relative to: not given
# Direction: higher = stronger binding
# Target sequence (chain): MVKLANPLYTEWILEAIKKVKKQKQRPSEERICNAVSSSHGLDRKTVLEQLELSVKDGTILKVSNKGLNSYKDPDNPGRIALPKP
Strand,E-score
CAATGGGA,-0.151
ATAGACAT,-0.223
TACGACAA,-0.186
GTTAGTTA,0.0772
ACCAGACT,-0.31
GTGGCCGA,0.117
CCGTTCAC,0.0943
AGCGCCGC,0.446
CATTAAAC,-0.112
CACTTGAA,-0.182
TCCTCGCA,-0.00158
ATGATCTC,-0.168
AGAGTGCG,0.173
ATACGTAA,0.0325
AATGGAAC,-0.166
GTGGGAAA,-0.235
CAGACTCC,-0.107
AGCGGCCT,0.285
GAGTTGAC,-0.121
AAGAACAG,-0.151
ATGGGCGA,-0.0998
GATGACTA,-0.00513
CTCGTGCC,0.0725
AAATTTTG,-0.156
CATGACTC,-0.204

# Study 2
# Target: CCND3, cyclin fold, Cln2 fusion (human)
# Method: yeast growth competition, sequencing
# Sample: yeast
# Setting: weak parent motif
# Relative to: not given
# Direction: higher = stronger binding
# Parent: E2F2 docking peptide (human); LPAKRKLDLEGIG
Variant,normalised enrichment score
R5A,0.162
L9A,0.0692
G11A,0.0352
E10A,0.109
R5K L9F,0.465
D8A,0.0702
L1A,0.0946

# Study 3
# Target: Interferon regulatory factor 7, full length, phosphomimetic (IRF7, Homo sapiens, UniProt Q92985, residues 1-503, S471D/S472D/S475D/S476D/S477D/S483D/S484D/S487D)
# Method: protein-binding microarray
# Molecule type: double-stranded DNA, one strand shown
# Sample: in vitro
# Concentration: 2200 nM top
# Setting: 60-bp whole probe
# With: salmon DNA 0.4 mg/ml
# Relative to: random background probes
# Direction: higher = stronger binding
# Shared flanks, not repeated: GCCTAGCAC … GTCTTGATTCGCTTGACGCTGCTG
# Target sequence (chain): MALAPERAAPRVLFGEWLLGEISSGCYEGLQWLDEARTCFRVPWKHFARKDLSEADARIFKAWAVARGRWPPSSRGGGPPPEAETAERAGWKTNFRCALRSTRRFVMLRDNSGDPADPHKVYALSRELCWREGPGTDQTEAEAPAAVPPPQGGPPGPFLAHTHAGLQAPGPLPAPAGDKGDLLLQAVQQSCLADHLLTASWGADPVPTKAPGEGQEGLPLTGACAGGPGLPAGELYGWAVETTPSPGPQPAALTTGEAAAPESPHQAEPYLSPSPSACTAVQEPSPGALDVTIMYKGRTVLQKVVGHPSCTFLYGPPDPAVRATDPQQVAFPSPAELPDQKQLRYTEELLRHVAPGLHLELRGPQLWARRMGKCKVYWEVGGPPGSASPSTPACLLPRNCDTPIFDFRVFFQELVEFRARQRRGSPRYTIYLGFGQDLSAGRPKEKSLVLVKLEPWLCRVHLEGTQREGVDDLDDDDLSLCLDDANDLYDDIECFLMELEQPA
Strand,fitted relative affinity [z-score]
TTAGGACGGGGACTGGGTTAGTGCTAG,-0.49
TTAGGTTTCGGACTGGGATAGTGCTAG,3.15
TTAGATTTCAGTCTCGACTAGTGCTAG,0.531
GACGCACTGGGTATCGGGACGTGCTAG,-0.191
GACGATCTCAGTTTCGAGAGGTGCTAG,2.05
TCATTTCTACTTCTCTTACTGTGCTAG,3.29
TTAGACATCAGACTGGATTAGTGCTAG,-0.429
GACGGTAGCGGACTGGGGACGTGCTAG,-1.12
GACAGTTTCGGTTCCGGGACGTGCTAG,13.7
GACGGGTTCGGGACTGGGGACGTGCTA,-0.273
GACGGACTGTGTCTCGGGACGTGCTAG,-0.431
TCAAACTTCTCCACTGAAACTGTGCTA,0.197
TCATTTCCATCTCTCAAACTGTGCTAG,3.09
GACGGTAACCTTTTCCTGACGTGCTAG,0.706
TCATTTCTACTGTCTGTTACTGTGCTA,2.13
TCATGTTTGGGTCTTGTACTGTGCTAG,1.35
TTAGATCTGAGACTGGATTAGTGCTAG,-0.417
GACGAACTGAGGATCGAGACGTGCTAG,-0.211
CTTTCTTTAACATATTCTCTTGTGCTA,1.54

# Study 4
# Target: RNA binding protein fox-1 homolog 2, RRM domain, GST-SBP tag (RBFOX2, Homo sapiens, UniProt O43251-10, residues 100-194)
# Method: RNA Bind-n-Seq
# Molecule type: RNA
# Sample: in vitro
# Concentration: 365 nM
# Setting: natural RNA segment, single round, ends assumed
# Relative to: no-protein control
# Direction: higher = stronger binding
# Shared flanks, not repeated: GGGAGUUCUACAGUCCGACGAUC … UGGAAUUCUCGGGUGCCAA
# Target sequence (chain): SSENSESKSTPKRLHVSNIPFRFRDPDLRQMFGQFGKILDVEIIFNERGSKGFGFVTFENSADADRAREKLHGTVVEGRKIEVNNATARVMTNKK
Strand,RBNS enrichment (R)
GUGUGGACUUCUCAUCUAAAAGGUUAGUGGCUUUUGCUUGGGAUCAGUGCUCUCUAUUGAUGUUCUUGCUGGUCUCCAGACACAUUCCUGUUGCAUUAAGACUUGAAAGA,1.01
UUUAGCCAUUUCUCAUUUUUUUCCUCAAAUUUUACCUACUGAGGCUCAAGCCUUCACAGUGAGCUGAUGGUCUCUACAGGGAGGGGAGUCUAGGGAAUUUAUUUGGUAUU,0.409
AGUGAAGACCUUAUUAAUAGGAGCAUAAUUGCGAGGGAGAAUCAUGGUUCUGCAGUCUGGUGUAGACACUGGAAUAACAGCACAGAAAAAUCUAUGACUCCCAAUAUCUU,0.283
GUUCACAGCAUUGCUUCUUCUUCUUCCUUCUCCACCUCCUUGUGGGAACGGGAUUAAGUUUAAAACUUUCCCGUUUCUUUUUUGUUCGGUUGGUUUGGGUUUUUUUUUUU,0.61
CGACUCACGCCUUAAAGCCACACUUUUUAUUCUCUCCAGGAACCUGCUAUUGAUUAGGUUAUACCUGAGGUACUUAAAAUAUGCAGUAGAAUUAAUGUCUUACUAAAGUG,0.336
AGUUAAAAGACUCCAGAAGCCUGUCUCCCCUGCCUGUGUCUGCUCUCCCUCUAUGUCUAUGGUGUCCCCUGGGUUACACAGCUAAACGUGAGGGACCAUCUACCCCCCAC,1.03
UUUCUGCCCAGCCCAUCUUGCCUGCAUGGUGCCUCUGGGUCUUUAAAGGAGGGUGGUAGGUACCAAGAACCAGUGGAGGGGACCCUGAGCUGGCAAGAGUAAGCCCCAUC,3.44
UGUGUGCCCACCCCUGACAUCUGUCCAUGUUGUCUAGACUCCACCUGUCCACGGUUCCUUUGUUCUAGGCUGUGAACCCGUCCUUGUCUCUUCCCCCACUGUGUGUUUAA,0.502

# Some of these lines once more (study 4):
Strand,RBNS enrichment (R)
CGACUCACGCCUUAAAGCCACACUUUUUAUUCUCUCCAGGAACCUGCUAUUGAUUAGGUUAUACCUGAGGUACUUAAAAUAUGCAGUAGAAUUAAUGUCUUACUAAAGUG,0.336
GUUCACAGCAUUGCUUCUUCUUCUUCCUUCUCCACCUCCUUGUGGGAACGGGAUUAAGUUUAAAACUUUCCCGUUUCUUUUUUGUUCGGUUGGUUUGGGUUUUUUUUUUU,0.61
UUUAGCCAUUUCUCAUUUUUUUCCUCAAAUUUUACCUACUGAGGCUCAAGCCUUCACAGUGAGCUGAUGGUCUCUACAGGGAGGGGAGUCUAGGGAAUUUAUUUGGUAUU,0.409
GUGUGGACUUCUCAUCUAAAAGGUUAGUGGCUUUUGCUUGGGAUCAGUGCUCUCUAUUGAUGUUCUUGCUGGUCUCCAGACACAUUCCUGUUGCAUUAAGACUUGAAAGA,1.01
UGUGUGCCCACCCCUGACAUCUGUCCAUGUUGUCUAGACUCCACCUGUCCACGGUUCCUUUGUUCUAGGCUGUGAACCCGUCCUUGUCUCUUCCCCCACUGUGUGUUUAA,0.502
UUUCUGCCCAGCCCAUCUUGCCUGCAUGGUGCCUCUGGGUCUUUAAAGGAGGGUGGUAGGUACCAAGAACCAGUGGAGGGGACCCUGAGCUGGCAAGAGUAAGCCCCAUC,3.44
AGUGAAGACCUUAUUAAUAGGAGCAUAAUUGCGAGGGAGAAUCAUGGUUCUGCAGUCUGGUGUAGACACUGGAAUAACAGCACAGAAAAAUCUAUGACUCCCAAUAUCUU,0.283
AGUUAAAAGACUCCAGAAGCCUGUCUCCCCUGCCUGUGUCUGCUCUCCCUCUAUGUCUAUGGUGUCCCCUGGGUUACACAGCUAAACGUGAGGGACCAUCUACCCCCCAC,1.03
